Results pooled from the literature.
Every numbered part comes from another study and shows a few of its results, in no order. Positions count from the first letter of the parent shown.

Series 1 — target: CCNE2, cyclin fold, Cln2 fusion (human); method: yeast growth competition, sequencing; matrix: yeast; setting: weak parent motif; relative to: not given; direction: higher = stronger binding
Starting sequence: MASTL docking peptide (human); PMIAKNLMCELDE
Variant | normalised enrichment score
M2K | 0.259
M8E | 0.0938
I3D | -0.444
L11D | -0.156
L7N | 0.0211
M8C | -0.339
I3M | -0.287
E10K | 0.317
I3L | -0.0481
N6H | -0.031
A4E | -0.411
L11R | -0.0505
C9H | -0.598
E10V | 0.299
I3T | -0.148
I3P | -0.133
E10G | -0.0117

Series 2 — method: DHFR PCA, dose-response; matrix: yeast; with: (+)-ABA, dose series; direction: lower = more sensitive
Target: ABI1, truncated, D143A, DHFR fusion (Arabidopsis thaliana, UniProt P49597)
Setting: Hill fit, not affinity, not high confidence
Starting sequence: PYL1, truncated, DHFR fusion (Arabidopsis thaliana, UniProt Q8VZS8); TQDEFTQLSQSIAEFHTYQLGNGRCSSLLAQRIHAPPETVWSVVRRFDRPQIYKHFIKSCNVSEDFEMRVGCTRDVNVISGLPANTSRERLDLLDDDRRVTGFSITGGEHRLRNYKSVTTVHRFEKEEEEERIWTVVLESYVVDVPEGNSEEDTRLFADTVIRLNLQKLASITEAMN
Variant | ABA EC50
A158K | 4.07 µM
L28D | 458 µM
L112A | 799 µM
K54Q | 1.27 µM
V44F | 756 µM
C25I | 21.5 µM
V145Y | 215 µM
R45W | 30.9 µM
V76K | 1390 µM
S117N | 16.8 µM
A84R | 0.0159 µM
R45F | 840 µM
T101D | 28.3 µM
I33G | 8.06 µM
R163P | 4.33 µM

Series 3 — method: universal PBM; form: double-stranded DNA, one strand shown; matrix: in vitro; tested at: 600 nM; direction: higher = stronger binding
Target: Sal-like protein 4, full length isoform A (SALL4, Homo sapiens, UniProt Q9UJQ4, residues 1-1053)
UniProt Q9UJQ4, sequence (whole entry, looked up): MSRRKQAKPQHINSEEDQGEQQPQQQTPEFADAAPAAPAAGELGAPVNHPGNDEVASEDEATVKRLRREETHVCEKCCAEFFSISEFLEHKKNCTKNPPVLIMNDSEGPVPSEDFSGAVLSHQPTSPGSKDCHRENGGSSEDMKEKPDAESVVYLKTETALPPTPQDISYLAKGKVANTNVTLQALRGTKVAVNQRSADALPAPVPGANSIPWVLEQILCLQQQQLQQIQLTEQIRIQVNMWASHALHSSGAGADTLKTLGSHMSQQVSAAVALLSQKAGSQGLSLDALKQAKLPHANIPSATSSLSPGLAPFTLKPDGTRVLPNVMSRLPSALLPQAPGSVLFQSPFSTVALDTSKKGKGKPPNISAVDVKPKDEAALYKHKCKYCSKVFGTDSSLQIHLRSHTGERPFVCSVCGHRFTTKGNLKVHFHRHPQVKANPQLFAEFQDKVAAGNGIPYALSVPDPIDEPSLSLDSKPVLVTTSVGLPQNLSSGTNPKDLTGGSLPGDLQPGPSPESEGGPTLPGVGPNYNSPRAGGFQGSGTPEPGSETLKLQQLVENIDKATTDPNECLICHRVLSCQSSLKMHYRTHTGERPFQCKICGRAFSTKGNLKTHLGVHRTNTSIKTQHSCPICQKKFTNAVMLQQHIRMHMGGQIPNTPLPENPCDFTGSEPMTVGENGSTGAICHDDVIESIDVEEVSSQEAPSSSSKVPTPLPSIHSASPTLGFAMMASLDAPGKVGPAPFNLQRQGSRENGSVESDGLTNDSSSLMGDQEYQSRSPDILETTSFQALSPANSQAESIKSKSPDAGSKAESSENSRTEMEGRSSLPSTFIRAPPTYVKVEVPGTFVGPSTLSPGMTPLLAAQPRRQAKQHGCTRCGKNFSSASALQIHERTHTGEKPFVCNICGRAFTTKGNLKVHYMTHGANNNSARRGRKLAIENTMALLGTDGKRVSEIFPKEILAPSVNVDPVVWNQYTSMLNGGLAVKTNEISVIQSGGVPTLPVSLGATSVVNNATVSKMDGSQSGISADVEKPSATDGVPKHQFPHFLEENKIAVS
Setting: 8-mer, flanks averaged, mean of replicates
Sequence | E-score
GTCTTGTA | 0.0865
CCGTATAG | 0.0764
ATTGATAG | 0.204
CGGAGGCC | -0.379
TAGCAAAA | 0.258
ATGGTTCC | -0.111
ATGAAGAA | 0.315
GGTCCGGA | -0.288
GCGCAACC | -0.312
CCGCATAC | -0.108
ACGTTGAC | -0.0542
CTCAGTGC | -0.197

Further values, each from its own experiment
Molecule | target | test | system | setting | how to read | endpoint | value
PhoQ, residues 284 288 289 292 302 303 AAQSYM | PhoP, residues 12 14 15 18 19 AQALL (Escherichia coli, UniProt P23836) | Sort-seq, refers to: YFP reporter | E. coli | PhoQ-PhoP variant library, with: 10 µM Mg2+ | relative to: high Mg2+ state, higher = stronger signaling | fold induction | 3.14

A few entries again (series 1):
Variant | normalised enrichment score
A4E | -0.411
L11R | -0.0505
C9H | -0.598
E10V | 0.299
